Measurements from different studies.
Protocols differ between the studies behind these lines. Values after ≈ are worked out from the molar mass of the structure shown.
4'-phosphopantetheinyl transferase PptT: 4'-phosphopantetheinyl transferase PptT (Mycobacterium tuberculosis, UniProt O33336)
Sequence of UniProt O33336 (whole entry, looked up): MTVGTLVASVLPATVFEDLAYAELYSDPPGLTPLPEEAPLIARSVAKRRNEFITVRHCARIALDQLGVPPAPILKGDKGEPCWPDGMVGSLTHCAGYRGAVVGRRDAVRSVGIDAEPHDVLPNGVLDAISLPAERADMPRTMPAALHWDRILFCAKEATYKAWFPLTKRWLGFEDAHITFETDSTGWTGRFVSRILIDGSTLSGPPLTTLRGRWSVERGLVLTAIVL
Sequence of UniProt Q2M2I8 (whole entry, looked up): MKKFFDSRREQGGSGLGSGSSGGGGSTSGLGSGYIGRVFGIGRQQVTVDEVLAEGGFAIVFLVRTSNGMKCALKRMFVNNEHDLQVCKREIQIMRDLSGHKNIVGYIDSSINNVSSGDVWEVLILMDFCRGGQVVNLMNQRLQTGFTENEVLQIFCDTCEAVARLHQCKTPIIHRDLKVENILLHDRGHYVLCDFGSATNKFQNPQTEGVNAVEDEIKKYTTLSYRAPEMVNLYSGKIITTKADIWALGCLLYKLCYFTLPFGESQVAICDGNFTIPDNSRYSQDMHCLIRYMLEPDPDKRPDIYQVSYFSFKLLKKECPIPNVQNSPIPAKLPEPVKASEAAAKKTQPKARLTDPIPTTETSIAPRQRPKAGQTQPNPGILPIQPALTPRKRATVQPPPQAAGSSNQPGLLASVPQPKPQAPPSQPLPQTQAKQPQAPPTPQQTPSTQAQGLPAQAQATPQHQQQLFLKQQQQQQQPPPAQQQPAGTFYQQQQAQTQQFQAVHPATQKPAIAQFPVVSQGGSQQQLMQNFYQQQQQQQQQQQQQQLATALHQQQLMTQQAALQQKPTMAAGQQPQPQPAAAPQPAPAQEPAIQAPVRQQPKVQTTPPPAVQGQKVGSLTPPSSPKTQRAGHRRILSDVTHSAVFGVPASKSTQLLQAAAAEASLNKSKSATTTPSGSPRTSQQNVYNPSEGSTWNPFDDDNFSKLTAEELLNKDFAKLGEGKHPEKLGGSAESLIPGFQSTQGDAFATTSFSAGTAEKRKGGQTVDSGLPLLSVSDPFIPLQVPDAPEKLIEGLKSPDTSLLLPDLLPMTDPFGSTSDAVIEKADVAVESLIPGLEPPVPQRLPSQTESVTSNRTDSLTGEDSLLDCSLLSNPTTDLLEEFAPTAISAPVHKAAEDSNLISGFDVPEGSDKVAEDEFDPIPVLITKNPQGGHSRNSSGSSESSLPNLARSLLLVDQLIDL
Sequence of UniProt P42336 (whole entry, unmodified, looked up): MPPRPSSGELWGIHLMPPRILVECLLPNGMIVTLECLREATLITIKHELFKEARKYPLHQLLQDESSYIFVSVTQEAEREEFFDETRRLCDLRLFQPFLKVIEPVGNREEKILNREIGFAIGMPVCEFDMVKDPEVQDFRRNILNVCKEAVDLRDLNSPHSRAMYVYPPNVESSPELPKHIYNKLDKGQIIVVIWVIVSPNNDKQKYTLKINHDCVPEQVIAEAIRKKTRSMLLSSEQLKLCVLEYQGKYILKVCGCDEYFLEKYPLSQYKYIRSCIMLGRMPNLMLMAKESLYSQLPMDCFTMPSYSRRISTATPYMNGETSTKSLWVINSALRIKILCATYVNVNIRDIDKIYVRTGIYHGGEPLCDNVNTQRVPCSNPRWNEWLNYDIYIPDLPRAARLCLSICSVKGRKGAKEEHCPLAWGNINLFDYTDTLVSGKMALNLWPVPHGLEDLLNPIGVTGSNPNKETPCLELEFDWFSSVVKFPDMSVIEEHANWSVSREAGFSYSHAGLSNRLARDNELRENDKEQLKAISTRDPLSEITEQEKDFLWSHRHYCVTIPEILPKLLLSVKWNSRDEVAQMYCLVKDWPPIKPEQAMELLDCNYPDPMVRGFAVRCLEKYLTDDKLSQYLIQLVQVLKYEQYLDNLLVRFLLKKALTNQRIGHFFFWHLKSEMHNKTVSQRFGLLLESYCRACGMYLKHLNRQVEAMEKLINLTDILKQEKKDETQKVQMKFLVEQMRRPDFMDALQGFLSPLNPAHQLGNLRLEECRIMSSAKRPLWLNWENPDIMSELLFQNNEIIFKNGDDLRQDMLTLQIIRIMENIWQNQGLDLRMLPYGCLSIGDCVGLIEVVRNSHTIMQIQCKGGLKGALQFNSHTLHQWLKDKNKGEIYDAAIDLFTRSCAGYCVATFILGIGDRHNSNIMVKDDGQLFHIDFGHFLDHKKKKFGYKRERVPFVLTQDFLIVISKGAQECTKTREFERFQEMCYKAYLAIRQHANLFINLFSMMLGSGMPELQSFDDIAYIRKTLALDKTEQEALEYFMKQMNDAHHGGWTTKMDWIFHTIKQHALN
Sequence of UniProt Q96Q40 (whole entry, looked up): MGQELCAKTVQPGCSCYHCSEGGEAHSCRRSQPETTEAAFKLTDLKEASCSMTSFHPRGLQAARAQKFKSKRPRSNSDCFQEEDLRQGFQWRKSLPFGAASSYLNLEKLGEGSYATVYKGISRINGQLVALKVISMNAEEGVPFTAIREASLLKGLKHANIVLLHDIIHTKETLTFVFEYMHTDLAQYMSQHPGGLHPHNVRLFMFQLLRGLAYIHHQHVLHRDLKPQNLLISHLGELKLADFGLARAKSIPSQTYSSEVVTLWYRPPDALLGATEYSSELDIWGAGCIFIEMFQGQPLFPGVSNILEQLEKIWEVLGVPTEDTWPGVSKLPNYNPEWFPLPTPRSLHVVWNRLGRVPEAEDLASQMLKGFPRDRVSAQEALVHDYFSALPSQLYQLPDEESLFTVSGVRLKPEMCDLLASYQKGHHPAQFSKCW
Sequence of UniProt Q13131 (whole entry, looked up): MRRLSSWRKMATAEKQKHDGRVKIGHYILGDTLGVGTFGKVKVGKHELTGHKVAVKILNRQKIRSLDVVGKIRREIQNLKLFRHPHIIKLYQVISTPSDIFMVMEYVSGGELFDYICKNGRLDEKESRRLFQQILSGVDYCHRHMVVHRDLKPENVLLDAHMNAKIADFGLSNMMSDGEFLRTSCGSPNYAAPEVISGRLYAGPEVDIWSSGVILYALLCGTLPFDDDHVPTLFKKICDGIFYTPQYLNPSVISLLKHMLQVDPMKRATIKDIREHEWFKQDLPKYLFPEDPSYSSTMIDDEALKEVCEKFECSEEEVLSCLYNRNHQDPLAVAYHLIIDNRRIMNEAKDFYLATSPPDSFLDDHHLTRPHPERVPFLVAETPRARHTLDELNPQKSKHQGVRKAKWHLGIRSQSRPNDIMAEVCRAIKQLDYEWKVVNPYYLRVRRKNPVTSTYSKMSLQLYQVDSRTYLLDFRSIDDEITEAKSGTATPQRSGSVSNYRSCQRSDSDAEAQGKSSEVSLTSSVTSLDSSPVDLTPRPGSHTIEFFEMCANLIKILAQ

| SMILES | target or system | assay | system | setting | quantity | value |
| --- | --- | --- | --- | --- | --- | --- |
| O=C(NNc1ccc(Cl)c(Cl)c1)c1nnc(C23CC4CC(CC(C4)C2)C3)o1 | Fusarium oxysporum | microbial growth |  | 50 µg/mL | inhibition | 70.9% |
| NCCCC[C@@H]1NC(=O)[C@@H](CCCN)NC(=O)[C@@H](Cc2ccccc2)NC(=O)[C@H](Cc2ccccc2)NC(=O)CNC1=O | Balamuthia mandrillaris | parasite growth, ATP luminescence |  |  | IC50 | > 16 µg/mL |
| O=c1c2cc(Cl)ccc2[nH]c(=S)n1Cc1ccc(-c2cscn2)nc1 | 4'-phosphopantetheinyl transferase PptT | enzyme activity, inhibitor, FP |  |  | IC50 | 350 nM |
| CCCCCCNC(=S)Nc1cccc(-c2cc(C(=O)OC)no2)c1 | Mycobacteroides abscessus | microbial growth, broth dilution | ATCC19977 | 48 h | MIC | > 64 µg/mL |
| CC(C)[C@H]1NC(=O)[C@@H](C)NC(=O)[C@H](Cc2c[nH]c3ccccc23)NC(=O)[C@@H](CCCN)NC(=O)[C@H]([C@@H](C)O)NC(=O)[C@@H](CCCN)NC(=O)[C@H](Cc2c[nH]c3ccccc23)NC(=O)[C@@H](C)NC1=O | Balamuthia mandrillaris | parasite growth, ATP luminescence |  |  | IC90 | > 16 µg/mL |
| COc1ncccc1-c1cnn2ccc(N3CCN(C(=O)OC(C)C)CC3)nc12 | PRKAA1 (Homo sapiens, UniProt Q13131) | binding, competition with immobilised ligand |  | 1 µM | remaining binding | 56% |
| Nc1ncnc2c([C@@H]3N[C@H](CO)[C@@H](O)[C@H]3O)c[nH]c12 | human respiratory syncytial virus | viral replication, inhibitor | MA104 | 8.9 µM | inhibition | 36.9% |
| COC(=O)c1cc(-c2cccc(NC(=S)Nc3ccc(C#N)cc3)c2)on1 | Acinetobacter baumannii | microbial growth, broth dilution | BAA1605 |  | MIC | > 64 µg/mL |
| O=C(NCCc1ncc(C(F)(F)F)cc1Cl)c1ccccc1C(F)(F)F | Sclerotinia sclerotiorum | microbial growth |  | 50 µg/mL | inhibition | 46.5% |
| Oc1c(Cl)cc(Cl)cc1-c1[nH]c(Cl)c(Cl)c1Cl | Shigella sonnei | microbial growth | ATCC25931 |  | MIC | 8 µM |
| CC(C)[C@H]1NC(=O)[C@H](Cc2ccccc2)NC(=O)CNC(=O)[C@@H](Cc2c[nH]c3ccccc23)NC(=O)[C@H](CCCCN)NC(=O)[C@@H](CCCN)NC1=O | Balamuthia mandrillaris | parasite growth, ATP luminescence |  |  | IC50 | > 16 µg/mL |
| COC(=O)c1cc(-c2cccc(NC(=O)Nc3ccccc3OC)c2)on1 | Mycobacteroides abscessus | microbial growth, broth dilution | ATCC19977 | 48 h | MIC | > 64 µg/mL |
| CC(C)[C@@H]1NC(=O)[C@@H](CCCCN)NC(=O)[C@H]([C@@H](C)O)NC(=O)[C@H](Cc2ccccc2)NC(=O)[C@@H](Cc2ccccc2)NC(=O)[C@H]([C@@H](C)O)NC(=O)[C@@H](CCCN)NC1=O | Balamuthia mandrillaris | parasite growth, ATP luminescence |  |  | IC90 | > 16 µg/mL |
| O=C(NNc1cccc(Cl)c1)c1nnc(CC23CC4CC(CC(C4)C2)C3)o1 | Fusarium oxysporum | microbial growth |  |  | EC50 | > 50 µg/mL |
| Cc1nn(C)cc1-c1nc2c(N3CCN(Cc4ccc(Cl)cc4)CC3)c(Cl)cnc2[nH]1 | PIK3CA (Homo sapiens, UniProt P42336, C420R) | binding, competition with immobilised ligand |  | 1 µM | remaining binding | 100% |
| C#Cc1cc(O)c(C=NNC(=O)c2ccc(Br)c(Br)c2)cc1C#C | Aspergillus fumigatus | microbial growth |  | 48 h, pH 6.5 | MIC80 | 8 µg/mL (≈ 17.9 µM) |
| O=C(OCc1cc2[nH]c(=S)n(Cc3cncnc3)c(=O)c2cc1Cl)Oc1ccccc1 | 4'-phosphopantetheinyl transferase PptT | enzyme activity, inhibitor, FP |  |  | IC50 | 17700 nM |
| Cc1ccc(NNC(=O)c2nnc(CC34CC5CC(CC(C5)C3)C4)o2)cc1 | Fusarium oxysporum | microbial growth |  |  | EC50 | > 12.5 µg/mL |
| CC(C)[C@@H]1NC(=O)[C@@H](CCCCN)NC(=O)[C@H](CCCN)NC(=O)[C@@H](CC(=O)O)NC(=O)[C@H](C)NC(=O)[C@H](Cc2c[nH]c3ccccc23)NC(=O)[C@@H](Cc2c[nH]c3ccccc23)NC1=O | Balamuthia mandrillaris | parasite growth, ATP luminescence |  |  | IC50 | > 16 µg/mL |
| COC(=O)c1cc(-c2cccc(NC(=O)Nc3c(C)cccc3C)c2)on1 | Mycobacteroides abscessus | microbial growth, broth dilution | ATCC19977 | 48 h | MIC | > 64 µg/mL |

| SMILES | target or system | assay | system | setting | quantity | value |
| --- | --- | --- | --- | --- | --- | --- |
| CC(C)(C)C(O)(CCc1ccc(Cl)cc1)Cn1cncn1 (stereo not drawn) | Sclerotinia sclerotiorum | microbial growth |  | 200 µg/mL | inhibition | 100% |
| O=C(NNc1ccc(Cl)c(Cl)c1)c1nnc(CC23CC4CC(CC(C4)C2)C3)o1 | Fusarium oxysporum | microbial growth |  |  | EC50 | > 50 µg/mL |
| C#Cc1cccc(O)c1C=NNC(=O)c1ccc(Br)c(Br)c1 | Aspergillus fumigatus | microbial growth |  | 48 h, pH 6.5 | MIC80 | 8 µg/mL (≈ 19 µM) |
| CC(C)[C@H]1NC(=O)[C@H](Cc2ccccc2)NC(=O)CNC(=O)[C@@H](Cc2ccccc2)NC(=O)[C@H](CCC(N)=O)NC(=O)[C@@H](CCCN)NC1=O | Balamuthia mandrillaris | parasite growth, ATP luminescence |  |  | IC50 | > 16 µg/mL |
| CC(=O)N1CCN(c2ccc(OCC3COC(Cn4ccnc4)(c4ccc(Cl)cc4Cl)O3)cc2)CC1 (stereo not drawn) | Candida albicans | microbial killing, broth dilution | 14936 | 48 h | MFC | > 64 µM |
| COC(=O)c1cc(-c2cccc(NC(=O)Nc3ccc(Cl)cc3)c2)on1 | Escherichia coli | microbial growth, broth dilution | ATCC25922 |  | MIC | > 64 µg/mL |
| C#Cc1ccc(C=NNC(=O)c2ccc(COCCC)cc2)c(O)c1 | Aspergillus fumigatus | microbial growth |  | 48 h, pH 6.5 | MIC80 | > 16 µg/mL |
| [2H]c1c([2H])c([C@]2([2H])CCCN2C(=O)C(C)(C)Oc2ccc3cn[nH]c3c2)c([2H])c([2H])c1C([2H])([2H])[2H] | CDK15 (Homo sapiens, UniProt Q96Q40) | binding, competition with immobilised ligand |  | 1 µM | remaining binding | 72% |
| COC(=O)c1cc(-c2cccc(NC(=O)Nc3cccc(C#N)c3)c2)on1 | Escherichia coli | microbial growth, broth dilution | ATCC25922 |  | MIC | > 64 µg/mL |
| Nc1ncc(-c2nc(N3CCOCC3)nc(N3CCOCC3)n2)c(C(F)F)n1 | AAK1 (Homo sapiens, UniProt Q2M2I8) | binding, competition with immobilised ligand |  | 10 µM | remaining binding | 62% |
| C[C@@H]1[C@H](O)[C@@H](C)/C=C/C=C/C=C/C=C/C=C/C=C/C=C/[C@H](O[C@@H]2O[C@H](C)[C@@H](O)[C@H](N)[C@@H]2O)C[C@@H]2O[C@](O)(C[C@@H](O)C[C@@H](O)[C@H](O)CC[C@@H](O)C[C@@H](O)CC(=O)O[C@H]1C)C[C@H](O)[C@H]2C(=O)O | Leishmania donovani | parasite growth, resazurin |  | 72 h, promastigote | IC50 | 0.16 µg/mL |
| O=C(NNc1cc(F)ccc1F)c1nnc(C23CC4CC(CC(C4)C2)C3)o1 | Sclerotinia sclerotiorum | microbial growth |  | 50 µg/mL | inhibition | 76.5% |
| COC(=O)c1cc(-c2cccc(NC(=O)Nc3ccc(Cl)c(Cl)c3)c2)on1 | Acinetobacter baumannii | microbial growth, broth dilution | BAA1605 |  | MIC | > 64 µg/mL |
| Cn1cc2c3c1C(=O)C(N)=CC3=[N+](C)CC2 | Babesia divergens | parasite growth, SYBR Green |  | 60 h, blood stage | IC50 | 365 nM |
| O=C(NNc1ccccc1)c1nnc(CC23CC4CC(CC(C4)C2)C3)o1 | Fusarium oxysporum | microbial growth |  | 50 µg/mL | inhibition | 69.7% |
| C#CC[C@@H]1NC(=O)[C@@H](CCCNC(=N)N)NC(=O)[C@H]([C@@H](C)O)NC(=O)[C@@H](CCCN)NC(=O)[C@H](Cc2ccccc2)NC(=O)[C@@H](Cc2ccccc2)NC1=O | Balamuthia mandrillaris | parasite growth, ATP luminescence |  |  | IC90 | > 20000 nM |
| C#Cc1ccc(O)c(C=NNC(=O)c2cc(Br)cc(Br)c2O)c1 | Aspergillus fumigatus | microbial growth |  | 48 h, pH 6.5 | MIC80 | 4 µg/mL (≈ 9.13 µM) |
| CC(C)[C@@H]1NC(=O)[C@@H](CCCN)NC(=O)[C@H]([C@@H](C)O)NC(=O)[C@H](Cc2ccccc2)NC(=O)[C@@H](Cc2ccccc2)NC(=O)[C@H](Cc2ccccc2)NC(=O)[C@@H](CCCN)NC1=O | Balamuthia mandrillaris | parasite growth, ATP luminescence |  |  | IC50 | > 16 µg/mL |
| COC(=O)c1cc(-c2ccc(NC(=O)Nc3ccc(Cl)c(Cl)c3)cc2)on1 | Acinetobacter baumannii | microbial growth, broth dilution | BAA1605 |  | MIC | > 64 µg/mL |

A few entries again:
| SMILES | target or system | assay | system | setting | quantity | value |
| --- | --- | --- | --- | --- | --- | --- |
| COC(=O)c1cc(-c2cccc(NC(=O)Nc3c(C)cccc3C)c2)on1 | Mycobacteroides abscessus | microbial growth, broth dilution | ATCC19977 | 48 h | MIC | > 64 µg/mL |
| COC(=O)c1cc(-c2cccc(NC(=S)Nc3ccc(C#N)cc3)c2)on1 | Acinetobacter baumannii | microbial growth, broth dilution | BAA1605 |  | MIC | > 64 µg/mL |
| CC(C)(C)C(O)(CCc1ccc(Cl)cc1)Cn1cncn1 (stereo not drawn) | Sclerotinia sclerotiorum | microbial growth |  | 200 µg/mL | inhibition | 100% |
| Nc1ncc(-c2nc(N3CCOCC3)nc(N3CCOCC3)n2)c(C(F)F)n1 | AAK1 (Homo sapiens, UniProt Q2M2I8) | binding, competition with immobilised ligand |  | 10 µM | remaining binding | 62% |
| Cc1nn(C)cc1-c1nc2c(N3CCN(Cc4ccc(Cl)cc4)CC3)c(Cl)cnc2[nH]1 | PIK3CA (Homo sapiens, UniProt P42336, C420R) | binding, competition with immobilised ligand |  | 1 µM | remaining binding | 100% |
